{"data": "Results gathered from unrelated publications", "note": "A part holds a random share of what one study measured. Substitutions count along the parent as printed."}
{"data": "Block 1", "target": "CCNB2, cyclin fold, Cln2 fusion (human)", "method": "yeast growth competition, sequencing", "medium": "yeast", "setting": "strong parent motif", "baseline": "not given", "direction": "higher = stronger binding", "starting sequence": "PKMYT1 docking peptide (human); SFEPRNLLSLFED"}
{"Variant": "F11M", "normalised enrichment score": -0.233}
{"Variant": "E12C", "normalised enrichment score": 0.853}
{"Variant": "D13P", "normalised enrichment score": 0.616}
{"Variant": "R5S", "normalised enrichment score": 0.607}
{"Variant": "L7R", "normalised enrichment score": -0.79}
{"Variant": "F11C", "normalised enrichment score": -0.807}
{"Variant": "S9M", "normalised enrichment score": 0.99}
{"Variant": "L7Q", "normalised enrichment score": -0.629}
{"data": "Block 2", "target": "Centromere-binding protein 1, full length, His-tagged (CBF1, Saccharomyces cerevisiae, UniProt P17106, residues 1-351)", "method": "competition protein-binding microarray", "form": "double-stranded DNA, one strand shown", "medium": "in vitro", "concentration": "2 µM", "setting": "whole 60-bp probe, lowest competitor level", "together with": "Pho4 competitor, 0.05 µM", "direction": "higher = stronger binding", "sequence of UniProt P17106 (whole entry, looked up)": "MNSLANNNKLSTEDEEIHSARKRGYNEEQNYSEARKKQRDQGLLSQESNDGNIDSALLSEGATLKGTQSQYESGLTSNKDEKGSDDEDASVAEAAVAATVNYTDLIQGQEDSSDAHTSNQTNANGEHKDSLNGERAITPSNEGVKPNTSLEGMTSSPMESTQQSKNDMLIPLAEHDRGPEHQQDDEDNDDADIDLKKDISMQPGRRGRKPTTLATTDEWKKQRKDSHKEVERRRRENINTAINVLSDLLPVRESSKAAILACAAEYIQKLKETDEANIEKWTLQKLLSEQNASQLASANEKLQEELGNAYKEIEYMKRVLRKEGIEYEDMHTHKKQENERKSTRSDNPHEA"}
{"Strand": "GAGAGCCTTGGTTGTCATGCCCTGAGGACCCAATGTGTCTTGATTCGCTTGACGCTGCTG", "fluorescence intensity": "64.9 a.u."}
{"Strand": "CGGGCATGTTGCAAACGCGTGTGAAAAAAAAAGAGAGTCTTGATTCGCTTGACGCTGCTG", "fluorescence intensity": "116 a.u."}
{"Strand": "CATACCCAACCTTGTTTAGTGGGTGAAGATATTTGTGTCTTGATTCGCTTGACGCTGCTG", "fluorescence intensity": "72.1 a.u."}
{"Strand": "CTACGGAAAAGGCCACACTTTTTTTCTGCAAGAAAAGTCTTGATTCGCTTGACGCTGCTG", "fluorescence intensity": "89 a.u."}
{"Strand": "CTGTTTCTTCTCCATACTTTCAAATATTCAAATTGAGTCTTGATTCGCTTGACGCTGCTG", "fluorescence intensity": "76.6 a.u."}
{"Strand": "GGGATTCCTCTCTGGCGTGTGATGTCTGTATCTGTTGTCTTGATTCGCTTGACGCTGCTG", "fluorescence intensity": "79.5 a.u."}
{"data": "Block 3", "target": "RNA binding protein fox-1 homolog 2, RRM domain, GST-SBP tag (RBFOX2, Homo sapiens, UniProt O43251-10, residues 100-194)", "method": "RNA Bind-n-Seq", "form": "RNA", "medium": "in vitro", "concentration": "365 nM", "setting": "natural RNA segment, single round, ends assumed", "baseline": "no-protein control", "direction": "higher = stronger binding", "Construct (chain)": "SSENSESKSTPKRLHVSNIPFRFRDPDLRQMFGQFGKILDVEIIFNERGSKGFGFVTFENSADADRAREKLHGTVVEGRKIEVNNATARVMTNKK"}
{"Strand": "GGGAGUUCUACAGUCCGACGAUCCAGCACUGCUGACUGCCUGCCUCUCUGACAUGUGGCUCUUGUUUCGUGGGGACUUUUCCUCUGGAAAAUACUUUGCCUUCAGGUAUUUGAUUGAAAUAUUUAAGAGUAUUUGGAAUUCUCGGGUGCCAA", "RBNS enrichment (R)": 1.14}
{"Strand": "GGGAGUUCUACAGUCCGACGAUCAUUCUUAGUUGUUCAGUUGCCAAGGAUCCCUGAUCCCAUUUUCCUCUGACGUCCACCUCCUACCCCAUAGGAGUUAGAAGUUAGGGUUUAGGCAUCAUUUUGAGAAUGCUUGGAAUUCUCGGGUGCCAA", "RBNS enrichment (R)": 0.244}
{"Strand": "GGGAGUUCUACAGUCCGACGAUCGUUGGGAAAGCCUCGUGUUGAAAGCCGGGGGAGCUUAAAUGAUCCAGGUGGUAGCUAGGGACCGUCCAUCAGUGGUCCUUCCCUCCACCGCCACGCCAGCUCCUGGGUCGUGGAAUUCUCGGGUGCCAA", "RBNS enrichment (R)": 0.292}
{"Strand": "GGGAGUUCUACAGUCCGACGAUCGUGUGGAGCUAGGUAGGCUAGGGUCUGUUUCACCAGGAAUCUCUCCUGAGGCCCAGUGGCAGCCUCUGUCACAGGGUCCCAGAGCCUGAGCUGAGGCGUCACCCUUAAAGUGGAAUUCUCGGGUGCCAA", "RBNS enrichment (R)": 0.354}
{"Strand": "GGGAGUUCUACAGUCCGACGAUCGCACUUGGUAUUCCAGACCCCUGACAUGAGGAAUGCAGGUUCACACUGUAAAGAGUUUGUGAAAGGUUUCAGUCUAACUGGGGUUCCUUAGCUGGAAGCCAGGGCUGGAAUGGAAUUCUCGGGUGCCAA", "RBNS enrichment (R)": 0.5}
{"Strand": "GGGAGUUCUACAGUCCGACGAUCUUGAGAAACCUGGACUAGAGCUUAGCACUCCCACUUGCAGCCUGGCAGGACCUGUGGAGCCAUUAACGGCGGGGGUCUUAGCGAGAACCACUUCAUUAGAGCACUUGCUGUGGAAUUCUCGGGUGCCAA", "RBNS enrichment (R)": 0.802}
{"data": "Single results of other studies"}
{"Substance": "PhoQ, residues 284 288 289 292 302 303 TTSMTC", "target": "PhoP, residues 12 14 15 18 19 AGCRL (Escherichia coli, UniProt P23836)", "test": "Sort-seq, refers to: YFP reporter", "system": "E. coli", "setting": "PhoQ-PhoP variant library, together with: 10 µM Mg2+", "how to read": "baseline: high Mg2+ state, higher = stronger signaling", "measurement": "fold induction", "result": 11.7}
